Measured values gathered from unrelated publications.
Protocols differ between the studies behind these lines. ± gives the spread as reported.

C[C@H](N)C(=O)OCCOCn1cnc2c(=O)[nH]c(N)nc21 — chemical hydrolysis half-life (DPBS buffer; 0.02 mM, pH 7.4, 34 °C): 2.9 ± 0.1 h
CCCCCCCCCCCCCCCC(=O)N[C@@H](CCCCN)C(=O)N[C@H](C(=O)N[C@H](C(=O)N[C@@H](CCCCN)C(=O)N[C@@H](CO)C(=O)O)[C@@H](C)O)[C@@H](C)O — chemical stability (10 mM HEPES buffer; pH 7.4): stable
COc1ccc(S(=O)(=O)N(C)/N=C/c2ccc(C#N)cc2)cc1OC — chemical stability (buffer; pH 2, 37 °C): stable
CC1=CC(c2ccccc2)=[O+][Pt-2]([NH3+])([NH3+])[O]1.O=[N+]([O-])[O-] (stereo not drawn) — chemical stability (1H NMR; PBS; up to 25 d, pH 7.4, 37 °C): no effect
Nc1nc2c(ncn2COCCOC(=O)[C@@H](N)CO)c(=O)[nH]1 — chemical hydrolysis half-life (DPBS buffer; 0.02 mM, pH 7.4, 34 °C): 29 ± 3 h
COC(=O)c1ccc(/C=N/N(C)S(=O)(=O)c2ccc(OC)c(OC)c2)cc1 — chemical stability (buffer; pH 2, 37 °C): stable
NC(=O)CN(Cc1ccccc1)C(=O)CN(CCOc1cc(-c2ccccn2)nc(-c2ccccn2)c1)C(=O)CNCc1ccccn1 — chemical stability (UV-Vis; PBS; 100 µM, up to 72 h, pH 7.4, 37 °C): stable
CC1=CC(C)=[O+][Pt-2]([NH3+])([NH3+])[O]1.CC1=CC(C)=[O+][Pt-2]([NH3+])([NH3+])[O]1.O=S(=O)([O-])[O-] (stereo not drawn) — chemical stability (1H NMR; PBS; up to 25 d, pH 7.4, 37 °C): no effect
CCC(=O)NCc1cc(C(=O)NCCN2CCC(N3CCC(n4c(=O)[nH]c5ccccc54)CC3)CC2)cc(C(=O)NCCN2CCN(CCCCC3CCN(CC(=O)N4c5ccccc5NC(=O)c5ccccc54)CC3)CC2)c1 — chemical stability (PBS; 100 µM, 48 h, pH 7.4, 22 °C): stable

A few entries again:
COC(=O)c1ccc(/C=N/N(C)S(=O)(=O)c2ccc(OC)c(OC)c2)cc1 — chemical stability (buffer; pH 2, 37 °C): stable
